Measured values pooled from the literature.
Protocols differ between the studies behind these lines. ± gives the spread as reported.
Target: Activated CDC42 kinase 1 (TNK2, Homo sapiens, UniProt Q07912)
Chain of UniProt Q07912 (whole entry, looked up): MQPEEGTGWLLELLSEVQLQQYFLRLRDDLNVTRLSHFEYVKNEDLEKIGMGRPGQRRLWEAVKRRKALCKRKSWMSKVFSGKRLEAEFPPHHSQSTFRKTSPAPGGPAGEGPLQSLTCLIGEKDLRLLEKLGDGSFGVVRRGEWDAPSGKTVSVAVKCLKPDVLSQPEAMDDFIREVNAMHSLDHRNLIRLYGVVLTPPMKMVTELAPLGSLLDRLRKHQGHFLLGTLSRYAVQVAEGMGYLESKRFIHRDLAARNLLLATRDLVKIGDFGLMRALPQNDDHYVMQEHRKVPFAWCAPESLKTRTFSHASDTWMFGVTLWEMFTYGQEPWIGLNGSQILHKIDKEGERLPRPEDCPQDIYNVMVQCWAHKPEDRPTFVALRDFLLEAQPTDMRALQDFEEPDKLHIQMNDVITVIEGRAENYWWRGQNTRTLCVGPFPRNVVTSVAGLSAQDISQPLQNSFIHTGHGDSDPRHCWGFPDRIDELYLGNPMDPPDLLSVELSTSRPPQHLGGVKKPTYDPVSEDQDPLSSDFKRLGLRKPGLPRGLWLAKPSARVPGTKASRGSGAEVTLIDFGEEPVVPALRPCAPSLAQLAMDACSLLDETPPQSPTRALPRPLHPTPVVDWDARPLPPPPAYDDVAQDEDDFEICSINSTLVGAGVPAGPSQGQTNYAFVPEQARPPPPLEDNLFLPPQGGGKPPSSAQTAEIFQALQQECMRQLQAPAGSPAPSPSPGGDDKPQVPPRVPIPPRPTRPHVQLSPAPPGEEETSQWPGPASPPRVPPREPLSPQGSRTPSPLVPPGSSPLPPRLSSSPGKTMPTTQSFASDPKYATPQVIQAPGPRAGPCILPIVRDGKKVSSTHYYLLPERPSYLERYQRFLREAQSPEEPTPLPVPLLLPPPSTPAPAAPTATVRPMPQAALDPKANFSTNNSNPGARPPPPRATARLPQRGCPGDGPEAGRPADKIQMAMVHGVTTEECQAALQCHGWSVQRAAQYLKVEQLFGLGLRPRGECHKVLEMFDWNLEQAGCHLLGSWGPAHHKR

[2H]c1cc(C)c(NC(=O)c2cnc(Nc3cc(N4CCCCC4)nc(C)n3)s2)c(Cl)c1  inhibition (0.01 µM): 30 to 90%
C=CC(=O)N1CCC[C@@H](n2nc(-c3ccc(Oc4ccccc4)cc3)c3c(N)ncnc32)C1  remaining activity (0.1 µM): 99.9%
Cc1cc(Nc2cc(N3CCN(C)CC3)nc(Sc3ccc(NC(=O)C4CC4)cc3)n2)[nH]n1  remaining activity (kinase activity, KinaseProfiler; 0.03 µM, species human; reference: control): 103%
C=CC(=O)N1CCC[C@@H](n2nc(-c3ccc(Oc4ccccc4)cc3)c3c(N)ncnc32)C1  remaining activity (kinase activity, inhibitor, HotSpot radiometric; 100 nM, added: ATP 10 µM): 69.2 ± 0.4%
C=CC(=O)N1CCC(COCC(=O)N2CCN(c3nc(-c4cnc(N)nc4C(F)F)nc(N4CCOC[C@@H]4C)n3)CC2)CC1  remaining binding (KINOMEscan; 1 µM): 98%
COc1ccc(F)cc1C(=O)NCc1ccc(-c2nn([C@@H](C)C(F)(F)F)c(N)c2C(N)=O)cc1  remaining activity (kinase activity, inhibitor, HotSpot radiometric; 100 nM, added: ATP 10 µM): 84.1 ± 0.3%
COc1cc(F)ccc1-c1ncnc(Nc2cccc(C[S@](C)(=N)=O)c2)n1  remaining activity (kinase activity; 10 µM, added: 10 µM ATP): 54%
C=CC(=O)N1CCC([C@@H]2CCNc3c(C(N)=O)c(-c4ccc(Oc5ccccc5)cc4)nn32)CC1  remaining activity (kinase activity, inhibitor, HotSpot radiometric; 100 nM, added: ATP 10 µM): 96.6 ± 0.4%
CCOc1cc(-c2nncn2C)ccc1Nc1ncc2cc(C)nc(NCC(C)(C)C)c2n1  displacement (binding, LanthaScreen binding; 1 µM): 44%

Some of these lines once more:
[2H]c1cc(C)c(NC(=O)c2cnc(Nc3cc(N4CCCCC4)nc(C)n3)s2)c(Cl)c1  inhibition (0.01 µM): 30 to 90%
